Assay results gathered from unrelated publications.
Compare with care: the assays were run in different laboratories. Numbers after ± are the reported error.
UniProt P21729, sequence (whole entry, looked up): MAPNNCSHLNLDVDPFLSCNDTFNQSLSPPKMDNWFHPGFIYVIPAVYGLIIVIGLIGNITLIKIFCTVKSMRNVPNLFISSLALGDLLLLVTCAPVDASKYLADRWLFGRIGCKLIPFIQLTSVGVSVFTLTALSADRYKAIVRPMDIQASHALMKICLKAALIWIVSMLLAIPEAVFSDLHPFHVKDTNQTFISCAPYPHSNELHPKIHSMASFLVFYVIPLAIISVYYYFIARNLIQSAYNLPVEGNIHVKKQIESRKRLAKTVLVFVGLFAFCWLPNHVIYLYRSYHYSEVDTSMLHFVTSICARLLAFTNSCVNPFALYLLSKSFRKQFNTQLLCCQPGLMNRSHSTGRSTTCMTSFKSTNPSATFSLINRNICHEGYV

CCCC[C@H](NC(=O)CNC(=O)CNC(=O)c1ccc(NN)nc1)C(=O)N[C@H]1CC(=O)NCCCC[C@@H](C(N)=O)NC(=O)[C@H](Cc2c[nH]c3ccccc23)NC(=O)[C@H](CCCNC(=N)N)NC(=O)[C@@H](Cc2ccccc2)NC(=O)[C@H](Cc2c[nH]cn2)NC1=O [technetium-99m labelled] — tissue uptake (C57 mouse, B16/F1 melanoma-bearing, spleen; intravenous, 4 h): 0.2 ± 0.18 %ID/g
CCCC[C@H](NC(=O)CCCCCCCNC(=O)c1ccc(NN)nc1)C(=O)N[C@H]1CC(=O)NCCCC[C@@H](C(N)=O)NC(=O)[C@H](Cc2c[nH]c3ccccc23)NC(=O)[C@H](CCCNC(=N)N)NC(=O)[C@@H](Cc2ccccc2)NC(=O)[C@H](Cc2c[nH]cn2)NC1=O [technetium-99m labelled] — tissue uptake (C57 mouse, B16/F1 melanoma, blood; 2 h, with: L-lysine 12 mg co-injected): 0.18 ± 0.13 %ID/g
CSCC[C@H](NC(=O)[C@H](CC(C)C)NC(=O)[C@H](Cc1c[nH]cn1)NC(=O)CNC(=O)[C@@H](NC(=O)[C@H](C)NC(=O)[C@H](Cc1c[nH]c2ccccc12)NC(=O)[C@H](CCC(N)=O)NC(=O)CCCCCNC(=O)CNC(=O)CNC(=O)CNC(=O)CSC(C)=O)C(C)C)C(N)=O [technetium-99m labelled] — tissue uptake (nude mouse, PC-3 xenograft, lung; 90 min): 1.05 ± 0.19 %ID/g
N=C(N)NCCC[C@@H]1NC(=O)[C@H](CCCCNC(=O)CC[C@H](NC(=O)CCOCCOCCOCCOCCNC(=O)CC[C@H](NC(=O)CN2CCN(CC(=O)O)CCN(CC(=O)O)CCN(CC(=O)O)CC2)C(=O)NCCOCCOCCOCCOCCC(=O)N[C@@H](CCC(=O)NCCCC[C@@H]2NC(=O)[C@@H](Cc3ccccc3)NC(=O)[C@H](CC(=O)O)NC(=O)CNC(=O)[C@H](CCCNC(=N)N)NC2=O)C(=O)NCCCC[C@@H]2NC(=O)[C@@H](Cc3ccccc3)NC(=O)[C@H](CC(=O)O)NC(=O)CNC(=O)[C@H](CCCNC(=N)N)NC2=O)C(=O)NCCCC[C@@H]2NC(=O)[C@@H](Cc3ccccc3)NC(=O)[C@H](CC(=O)O)NC(=O)CNC(=O)[C@H](CCCNC(=N)N)NC2=O)NC(=O)[C@@H](Cc2ccccc2)NC(=O)[C@H](CC(=O)O)NC(=O)CNC1=O [indium-111 labelled] — tissue uptake (athymic nude mice, female, U-87 MG glioma xenograft, U-87 MG tumour; intravenous, 3 µCi, 1 h): 10.7 ± 2.41 %ID/g
CCCNC(=O)[C@H](CC(C)C)NC(=O)[C@H](Cc1c[nH]cn1)NC(=O)CNC(=O)[C@@H](NC(=O)[C@H](C)NC(=O)[C@H](Cc1c[nH]c2ccccc12)NC(=O)[C@H](CCC(N)=O)NC(=O)[C@@H](Cc1ccccc1)NC(=O)CCCCCNC(=O)CN1CCN(CC(=O)O)CCN(CC(=O)O)CCN(CC(=O)O)CC1)C(C)C [indium-111 labelled] — tissue uptake (Gastrin-releasing peptide receptor (Mus musculus, UniProt P21729); biodistribution; CF-1 mice, muscle; intravenous, 1 h, unblocked): 0.04 ± 0.01 %ID/g
N=C(N)NCCC[C@@H]1NC(=O)[C@H](CCCCNC(=O)CCOCCOCCOCCOCCNC(=O)CN2CCN(CC(=O)O)CCN(CC(=O)O)CCN(CC(=O)O)CC2)NC(=O)[C@@H](Cc2ccccc2)NC(=O)[C@H](CC(=O)O)NC(=O)CNC1=O [indium-111 labelled] — tissue uptake (athymic nude mice, female, U-87 MG glioma xenograft, U-87 MG tumour; intravenous, 3 µCi, 0.5 h): 3.74 ± 0.55 %ID/g
CC(C)(C)n1cc(CN(Cc2cn(CCOCCOCCOCCOCCOCCOCCC(=O)N[C@@H](CCCNC(=N)N)C(=O)N[C@@H](CCCCN)C(=O)N[C@@H](CCCCN)C(=O)N[C@@H](CCCNC(=N)N)C(=O)N[C@@H](CCCNC(=N)N)C(=O)N[C@@H](CCC(N)=O)C(=O)N[C@@H](CCCNC(=N)N)C(=O)N[C@@H](CCCNC(=N)N)C(=O)N[C@@H](CCCNC(=N)N)C(N)=O)nn2)Cc2cn(C(C)(C)C)nn2)nn1 — viability (OVCAR-5; 200 µM, 10 min, after CuAAC reaction): 75%
N=C(N)NCCC[C@@H]1NC(=O)[C@H](CCCCNC(=O)CCOCCOCCOCCOCCNC(=O)CC[C@H](NC(=O)CCOCCOCCOCCOCCNC(=O)CC[C@H](NC(=O)CN2CCN(CC(=O)O)CCN(CC(=O)O)CCN(CC(=O)O)CC2)C(=O)NCCOCCOCCOCCOCCC(=O)N[C@@H](CCC(=O)NCCOCCOCCOCCOCCC(=O)NCCCC[C@@H]2NC(=O)[C@@H](Cc3ccccc3)NC(=O)[C@H](CC(=O)O)NC(=O)CNC(=O)[C@H](CCCNC(=N)N)NC2=O)C(=O)NCCOCCOCCOCCOCCC(=O)NCCCC[C@@H]2NC(=O)[C@@H](Cc3ccccc3)NC(=O)[C@H](CC(=O)O)NC(=O)CNC(=O)[C@H](CCCNC(=N)N)NC2=O)C(=O)NCCOCCOCCOCCOCCC(=O)NCCCC[C@@H]2NC(=O)[C@@H](Cc3ccccc3)NC(=O)[C@H](CC(=O)O)NC(=O)CNC(=O)[C@H](CCCNC(=N)N)NC2=O)NC(=O)[C@@H](Cc2ccccc2)NC(=O)[C@H](CC(=O)O)NC(=O)CNC1=O [indium-111 labelled] — tumour to tissue ratio (athymic nude mice, female, U-87 MG glioma xenograft, tumour and kidney; intravenous, 4 h; relative to: tumour over kidney): 1.52 ± 0.43
COc1cccc2c1C(=O)c1c(O)c3c(c(O)c1C2=O)C[C@@](O)(C(=O)CO)C[C@@H]3O[C@H]1C[C@H](NC(=N)CCCSSC[C@@H]2NC(=O)[C@H](CCCNC(=N)N)NC(=O)[C@H](Cc3c[nH]c4ccccc34)NC(=O)[C@H](CCCNC(=N)N)NC(=O)[C@H](Cc3c[nH]c4ccccc34)NC(=O)[C@H](CCCCNC(=O)CCN)NC(=O)[C@H](Cc3c[nH]c4ccccc34)NC(=O)[C@H](CCCNC(=N)N)NC(=O)[C@H](Cc3c[nH]c4ccccc34)NC(=O)[C@H](CCCNC(=N)N)NC2=O)[C@H](O)[C@H](C)O1 — viability (C2C12 cells; MTT; concentration not given, 72 h; relative to: control): 71%

Some of these lines once more:
CCCC[C@H](NC(=O)CCCCCCCNC(=O)c1ccc(NN)nc1)C(=O)N[C@H]1CC(=O)NCCCC[C@@H](C(N)=O)NC(=O)[C@H](Cc2c[nH]c3ccccc23)NC(=O)[C@H](CCCNC(=N)N)NC(=O)[C@@H](Cc2ccccc2)NC(=O)[C@H](Cc2c[nH]cn2)NC1=O [technetium-99m labelled] — tissue uptake (C57 mouse, B16/F1 melanoma, blood; 2 h, with: L-lysine 12 mg co-injected): 0.18 ± 0.13 %ID/g
